Experimental data of several laboratories.
Compare with care: the assays were run in different laboratories. “And” joins repeats or separate records; there may be more than shown. ± marks the error that the study gave.

| SMILES | assay | test system | conditions | Tmax |
| --- | --- | --- | --- | --- |
| N#CC[C@H](C1CCCC1)n1cc(-c2ncnc3[nH]ccc23)cn1 | – | children, plasma | oral, after first dose, all dose levels | 1 h |
| CCNC(=O)[C@@H]1CCCN1C(=O)[C@H](CCCNC(=N)N)NC(=O)[C@H](CC(C)C)NC(=O)[C@@H](CC(C)C)NC(=O)[C@H](Cc1ccc(O)cc1)NC(=O)[C@H](CO)NC(=O)[C@H](Cc1c[nH]c2ccccc12)NC(=O)[C@H](Cc1c[nH]cn1)NC(=O)[C@@H]1CCC(=O)N1 | – | healthy female volunteers | subcutaneous, 1 mg single dose | 3.49 ± 0.23 h |
| CS(=O)(=O)c1ccc([C@@H](O)[C@@H](CF)NC(=O)C(Cl)Cl)cc1 | – | chicken (Arbor Acres), plasma | oral, 20 mg/kg, with: quercetin 20 mg/kg pretreatment | 0.8 ± 0.11 h |
| COc1ccc([C@@H](O)c2cc(-c3ncnc4cc(N5CCOCC5)ccc34)c(F)cc2Cl)nn1 | median | healthy volunteers, plasma | oral, 100 mg, fasted oral suspension | 0.5 h |
| C[C@H]1[C@H]2N(C(=O)CN(C)N2C(=O)NCc2ccccc2)[C@@H](Cc2ccc(OP(=O)(O)O)cc2)C(=O)N1Cc1cccc2cccnc12 | – | patients, plasma | intravenous infusion, 280 mg/m2 over 4 h, median | 1 h |
| CCCCCCCCCCCCCCCC(=O)N[C@@H](CCC(=O)NCCCC[C@@H]1NC(=O)[C@H]([C@@H](C)CC)NC(=O)[C@@H](NC(=O)[C@@H]2CCCN2C(=O)[C@H](Cc2ccccc2)NC(=O)[C@H](Cc2c[nH]cn2)NC(=O)[C@@H](NC(=O)[C@H](CC(=O)O)NC(=O)CC(C)C)[C@@H](C)O)CSSC[C@@H](C(=O)N[C@@H](CCCCN)C(N)=O)NC(=O)CNC(=O)[C@H](CCCCN)NC(=O)[C@H](CO)NC(=O)[C@H](CCCNC(=N)N)NC(=O)[C@@H]2CCCN2C(=O)[C@H](CCC(=O)O)NC(=O)[C@H](Cc2ccccc2)NC1=O)C(=O)O | – | healthy volunteers, plasma | subcutaneous, 30 mg single, lyophilised formulation, median | 24 h |
| O=C(c1cccnc1-c1ccncc1)N1CCC(O)(Cc2ccccc2)CC1 | – | healthy Japanese adults, plasma | oral, 100 mg twice daily, day 7, median | 0.5 h |
| CN1CC[C@@H](c2c(O)cc(O)c3c(=O)cc(-c4ccc(C(F)(F)F)cc4Cl)oc23)[C@@H]1CO | – | patients, plasma | oral, 100 mg continuous, day 1, cycle 1 | 4 h |
| C[C@@H](N)C1CCN(S(=O)(=O)c2cccc3cnccc23)CC1 | – | healthy volunteers, plasma | oral, 150 mg, fed, single dose | 0.88 h |
| CN(C)C(=O)c1cc2cnc(Nc3ccc(N4CCNCC4)cn3)nc2n1C1CCCC1 | – | patients, plasma | oral, steady state, median, with: tamoxifen | 3.55 h |
| CC(=O)c1c(C)c2cnc(Nc3ccc(N4CCNCC4)cn3)nc2n(C2CCCC2)c1=O | – | cancer patients, plasma | oral, 100 mg, cycle 1 day 15, with: neratinib 240 mg | 3.9 h |
| COc1nnc2ccc(N3CCC(c4ccc(OCCN5CCN(C)C(=O)[C@H]5C)cc4)CC3)nn12 | – | patients, plasma | oral, 15 mg twice daily, single dose, monotherapy, median | 1 h |
| CC(C)(C)c1cc(C(C)(C)C)c(NC(=O)c2c[nH]c3ccccc3c2=O)cc1O | – | human, plasma | oral, standard ETI dose | 3 h |
| CC#Cc1cncc(-c2ccc3c(c2)[C@@]2(N=C(C)C(N)=N2)[C@]2(CC[C@H](OC)CC2)C3)c1 | – | Dunkin-Hartley guinea pigs, male, CSF | oral, single dose NG | 2 h |
| CC[C@H](C)CCCCC(=O)N[C@@H](CCN)C(=O)N[C@H](C(=O)N[C@@H](CCN)C(=O)N[C@H]1CCNC(=O)[C@H]([C@@H](C)O)NC(=O)[C@H](CCN)NC(=O)[C@H](CCN)NC(=O)[C@H](CC(C)C)NC(=O)[C@@H](Cc2ccccc2)NC(=O)[C@H](CCN)NC1=O)[C@@H](C)O | – | mild renal insufficiency patients, plasma | IV infusion, 0.75 mg/kg, 1 h infusion, median | 1 h |
| CN[C@H](CC(C)C)C(=O)N[C@H]1C(=O)N[C@@H](CC(N)=O)C(=O)N[C@H]2C(=O)N[C@H]3C(=O)N[C@H](C(=O)N[C@H](C(=O)O)c4cc(O)cc(O)c4-c4cc3ccc4O)[C@H](O)c3ccc(c(Cl)c3)Oc3cc2cc(c3O[C@@H]2O[C@H](CO)[C@@H](O)[C@H](O)[C@H]2O[C@H]2C[C@](C)(N)[C@H](O)[C@H](C)O2)Oc2ccc(cc2Cl)[C@H]1O | – | guinea pig, tissue cage fluid | local, 10 mg/mL, poloxamer 407 hydrogel | 0 h |

| SMILES | assay | test system | conditions | Tmax |
| --- | --- | --- | --- | --- |
| CO[C@H]1CC[C@H](N2C(=O)CNc3ncc(-c4ccc(C(C)(C)O)nc4)nc32)CC1 | – | patients, plasma | oral, 7.5 mg, day -1, median | 1 h |
| C=CC(=O)NC1CCN(c2ncc3ncnc(Nc4ccc(Oc5ccc6c(c5)ncn6C)c(C)c4)c3n2)CC1 | – | healthy male volunteers, plasma | oral, 60 mg, unlabelled tablet | 2.5 h |
| C[C@H]1CN(C(=O)CC#N)[C@]12CCN(c1ncnc3[nH]ccc13)C2 | – | healthy Japanese males, plasma | oral, 5 mg single dose | 1 h |
| Cc1ccc(NC(=O)c2ccc(CN3CCN(C)CC3)cc2)cc1Nc1nccc(-c2cncc(-c3oncc3C)c2)n1 | – | Parkinson's disease patients, plasma | oral, 100 mg/day, 7 days, steady state | 4.4 ± 1.7 h |
| CCCCC[C@H](O)CC[C@@H]1[C@H]2Cc3cccc(OCC(=O)O)c3C[C@H]2C[C@H]1O | LC-MS/MS | Japanese PAH patients, plasma | inhaled, 54 µg, age under 50 years, mean | 0.26 h |
| CN(CCC(=O)O)C(=O)c1ccc2c(c1)CC[C@@H]1[C@@H]2CC[C@]2(C)C(c3cncc(F)c3)=CC[C@@H]12 | – | postmenopausal women, plasma | 3 mg once daily multiple dose, day 14, median | 1.5 h |
| CCc1nc(C(N)=O)c(Nc2ccc(N3CCC(N4CCN(C)CC4)CC3)c(OC)c2)nc1NC1CCOCC1 | – | Japanese patients, plasma | oral, 200 mg, cycle 1 day 28, multiple doses, median | 6 h |
| CC(=O)Nc1ccc(C[C@H](NC(=O)[C@H](CO)NC(=O)[C@@H](Cc2cccnc2)NC(=O)[C@@H](Cc2ccc(Cl)cc2)NC(=O)[C@@H](Cc2ccc3ccccc3c2)NC(C)=O)C(=O)N[C@H](Cc2ccc(NC(C)=O)cc2)C(=O)N[C@@H](CC(C)C)C(=O)N[C@@H](CCCCNC(C)C)C(=O)N2CCC[C@H]2C(=O)N[C@H](C)C(N)=O)cc1 | – | healthy men, fasted, serum | oral, 20 mg single dose | 7.7 ± 16 h |
| CCc1nc2c(C)cc(N3CCN(CC(=O)N4CC(O)C4)CC3)cn2c1N(C)c1nc(-c2ccc(F)cc2)c(C#N)s1 | – | healthy volunteers, fed, plasma | oral, 600 mg single dose, day 1, suspension | 1 h |
| C=CC[C@@H]1/C=C(\C)C[C@H](C)C[C@H](OC)[C@H]2O[C@@](O)(C(=O)C(=O)N3CCCC[C@H]3C(=O)O[C@H](/C(C)=C/[C@@H]3CC[C@@H](O)[C@H](OC)C3)[C@H](C)[C@@H](O)CC1=O)[C@H](C)C[C@@H]2OC | – | healthy adults, whole blood | oral, median | 1.5 h and 1.75 h |
| CC(F)(F)c1nc2nc(CO)cc(Nc3ccc(S(F)(F)(F)(F)F)cc3)n2n1 | LC-MS/MS, non-compartmental | malaria patients | 800 mg of parent drug, median | 136 h |
| Oc1ccc([C@@H](O)c2cc(-c3ncnc4cc(N5CCOCC5)ccc34)c(F)cc2Cl)nn1 | median | healthy volunteers, plasma | oral, 100 mg, fasted oral suspension | 0.5 h |
| C[C@@](Cc1ccc(O)c(O)c1)(NN)C(=O)O | – | Parkinson's disease patients, plasma | oral, low levodopa AUC subgroup (11.5 µmol·h/L), median | 2 h |
| Cc1c(C(=O)O)ccc2c3n(nc12)[C@@H]1[C@H](C3)N(CC2CC2)[C@@]2(C(=O)Nc3cc(Cl)ccc32)[C@H]1c1cccc(Cl)c1F | – | cancer patients, plasma | oral, 45 mg day 1 every 3 weeks, median, cycle 1 | 5 h |
| C=C(F)C(=O)N1CCN(c2nc(OC[C@@H]3CCCN3C)nc3c2CCN(c2cccc4cccc(Cl)c24)C3)C[C@@H]1CC#N | – | healthy volunteers, plasma | 600 mg | 7 h |

Excerpt of the above:
| SMILES | assay | test system | conditions | Tmax |
| --- | --- | --- | --- | --- |
| C=C(F)C(=O)N1CCN(c2nc(OC[C@@H]3CCCN3C)nc3c2CCN(c2cccc4cccc(Cl)c24)C3)C[C@@H]1CC#N | – | healthy volunteers, plasma | 600 mg | 7 h |
| CC(=O)c1c(C)c2cnc(Nc3ccc(N4CCNCC4)cn3)nc2n(C2CCCC2)c1=O | – | cancer patients, plasma | oral, 100 mg, cycle 1 day 15, with: neratinib 240 mg | 3.9 h |
| CCc1nc(C(N)=O)c(Nc2ccc(N3CCC(N4CCN(C)CC4)CC3)c(OC)c2)nc1NC1CCOCC1 | – | Japanese patients, plasma | oral, 200 mg, cycle 1 day 28, multiple doses, median | 6 h |
